Experimental data gathered from unrelated publications.
Lines come from different studies, so protocols differ. ± gives the spread as reported.
GRPR: Gastrin-releasing peptide receptor (GRPR, Homo sapiens, UniProt P30550)
Chain of UniProt P30550 (whole entry, looked up): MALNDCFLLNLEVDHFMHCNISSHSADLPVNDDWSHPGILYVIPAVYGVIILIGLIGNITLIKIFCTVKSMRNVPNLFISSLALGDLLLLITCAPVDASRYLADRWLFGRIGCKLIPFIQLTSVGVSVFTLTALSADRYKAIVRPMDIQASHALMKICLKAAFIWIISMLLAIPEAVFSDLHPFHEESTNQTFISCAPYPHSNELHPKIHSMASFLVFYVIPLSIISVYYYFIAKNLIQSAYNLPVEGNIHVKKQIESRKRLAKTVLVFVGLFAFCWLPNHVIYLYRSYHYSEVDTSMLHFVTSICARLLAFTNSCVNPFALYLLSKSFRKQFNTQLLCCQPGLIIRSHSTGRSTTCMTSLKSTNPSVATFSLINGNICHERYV
Chain of UniProt O95838 (whole entry, looked up): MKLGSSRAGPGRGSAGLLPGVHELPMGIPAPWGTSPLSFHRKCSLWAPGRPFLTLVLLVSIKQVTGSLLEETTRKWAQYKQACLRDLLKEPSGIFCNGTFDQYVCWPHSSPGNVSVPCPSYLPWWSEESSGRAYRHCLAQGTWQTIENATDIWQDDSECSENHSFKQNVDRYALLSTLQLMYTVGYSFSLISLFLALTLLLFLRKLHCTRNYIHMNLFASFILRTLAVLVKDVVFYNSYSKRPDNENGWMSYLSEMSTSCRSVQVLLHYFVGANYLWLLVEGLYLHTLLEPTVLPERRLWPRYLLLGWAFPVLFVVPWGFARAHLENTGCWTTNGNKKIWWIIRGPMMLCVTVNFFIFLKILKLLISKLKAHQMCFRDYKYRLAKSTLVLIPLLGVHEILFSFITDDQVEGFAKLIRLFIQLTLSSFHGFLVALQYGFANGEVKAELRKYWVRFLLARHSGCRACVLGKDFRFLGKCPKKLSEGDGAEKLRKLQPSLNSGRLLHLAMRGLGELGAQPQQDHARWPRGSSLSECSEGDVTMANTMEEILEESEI
Chain of UniProt P14780 (whole entry, looked up): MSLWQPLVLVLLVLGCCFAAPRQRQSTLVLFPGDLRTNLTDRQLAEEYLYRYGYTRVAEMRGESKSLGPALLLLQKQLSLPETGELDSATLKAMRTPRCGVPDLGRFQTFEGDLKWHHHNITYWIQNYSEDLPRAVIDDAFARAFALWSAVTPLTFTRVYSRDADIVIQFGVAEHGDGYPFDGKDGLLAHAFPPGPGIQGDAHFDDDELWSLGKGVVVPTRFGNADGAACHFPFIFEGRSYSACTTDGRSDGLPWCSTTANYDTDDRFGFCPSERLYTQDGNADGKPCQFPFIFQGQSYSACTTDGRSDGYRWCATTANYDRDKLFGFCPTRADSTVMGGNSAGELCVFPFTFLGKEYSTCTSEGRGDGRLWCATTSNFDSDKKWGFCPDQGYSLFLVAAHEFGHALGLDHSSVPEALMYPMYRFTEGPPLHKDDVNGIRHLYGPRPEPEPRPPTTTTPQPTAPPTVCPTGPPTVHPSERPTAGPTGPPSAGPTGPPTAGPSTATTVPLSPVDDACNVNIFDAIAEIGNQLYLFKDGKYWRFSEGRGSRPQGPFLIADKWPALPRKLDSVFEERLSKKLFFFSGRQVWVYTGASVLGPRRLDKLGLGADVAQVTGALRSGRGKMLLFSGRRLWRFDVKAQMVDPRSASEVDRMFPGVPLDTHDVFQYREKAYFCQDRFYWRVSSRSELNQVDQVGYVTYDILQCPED
Chain of UniProt Q8I5R7 (whole entry, looked up): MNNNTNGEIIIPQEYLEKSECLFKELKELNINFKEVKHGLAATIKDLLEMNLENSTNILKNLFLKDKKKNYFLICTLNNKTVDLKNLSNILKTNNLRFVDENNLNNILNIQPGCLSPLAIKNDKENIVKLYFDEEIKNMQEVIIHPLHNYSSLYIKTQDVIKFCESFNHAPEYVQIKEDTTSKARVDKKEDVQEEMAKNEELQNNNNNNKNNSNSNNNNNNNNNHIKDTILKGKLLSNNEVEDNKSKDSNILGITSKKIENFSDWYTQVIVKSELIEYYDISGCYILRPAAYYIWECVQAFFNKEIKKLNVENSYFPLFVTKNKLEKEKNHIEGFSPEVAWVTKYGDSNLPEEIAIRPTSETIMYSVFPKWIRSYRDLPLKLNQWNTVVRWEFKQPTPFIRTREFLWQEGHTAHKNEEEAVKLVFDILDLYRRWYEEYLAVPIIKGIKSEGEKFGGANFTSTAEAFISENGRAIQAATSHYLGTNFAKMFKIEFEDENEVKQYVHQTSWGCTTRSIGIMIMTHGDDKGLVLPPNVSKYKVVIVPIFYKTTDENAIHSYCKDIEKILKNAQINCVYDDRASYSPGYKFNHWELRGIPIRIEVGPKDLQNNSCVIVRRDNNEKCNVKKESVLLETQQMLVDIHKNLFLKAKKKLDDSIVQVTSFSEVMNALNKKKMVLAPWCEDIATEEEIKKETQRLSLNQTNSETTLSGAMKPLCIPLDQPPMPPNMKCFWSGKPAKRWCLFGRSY
Chain of UniProt Q13526 (whole entry, looked up): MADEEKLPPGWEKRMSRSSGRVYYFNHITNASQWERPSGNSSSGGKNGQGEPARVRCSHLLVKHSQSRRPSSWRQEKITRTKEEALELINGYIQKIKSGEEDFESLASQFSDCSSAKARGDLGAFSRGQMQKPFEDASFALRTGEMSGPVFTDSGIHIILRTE
Chain of UniProt P04746 (whole entry, looked up): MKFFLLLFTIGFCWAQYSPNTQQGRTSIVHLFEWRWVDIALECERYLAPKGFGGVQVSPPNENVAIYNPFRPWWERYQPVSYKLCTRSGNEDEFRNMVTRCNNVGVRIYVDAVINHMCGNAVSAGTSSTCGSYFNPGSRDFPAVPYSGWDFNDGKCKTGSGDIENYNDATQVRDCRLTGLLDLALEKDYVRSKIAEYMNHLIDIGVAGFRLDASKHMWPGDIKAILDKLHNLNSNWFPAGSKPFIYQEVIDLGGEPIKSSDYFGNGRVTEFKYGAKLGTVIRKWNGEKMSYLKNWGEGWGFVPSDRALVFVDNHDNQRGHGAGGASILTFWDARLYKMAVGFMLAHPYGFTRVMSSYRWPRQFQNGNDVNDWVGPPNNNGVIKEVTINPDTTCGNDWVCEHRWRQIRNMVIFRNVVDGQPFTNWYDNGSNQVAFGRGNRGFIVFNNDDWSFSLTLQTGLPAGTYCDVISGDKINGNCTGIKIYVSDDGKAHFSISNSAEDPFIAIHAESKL
Chain of UniProt Q96EB6 (whole entry, looked up): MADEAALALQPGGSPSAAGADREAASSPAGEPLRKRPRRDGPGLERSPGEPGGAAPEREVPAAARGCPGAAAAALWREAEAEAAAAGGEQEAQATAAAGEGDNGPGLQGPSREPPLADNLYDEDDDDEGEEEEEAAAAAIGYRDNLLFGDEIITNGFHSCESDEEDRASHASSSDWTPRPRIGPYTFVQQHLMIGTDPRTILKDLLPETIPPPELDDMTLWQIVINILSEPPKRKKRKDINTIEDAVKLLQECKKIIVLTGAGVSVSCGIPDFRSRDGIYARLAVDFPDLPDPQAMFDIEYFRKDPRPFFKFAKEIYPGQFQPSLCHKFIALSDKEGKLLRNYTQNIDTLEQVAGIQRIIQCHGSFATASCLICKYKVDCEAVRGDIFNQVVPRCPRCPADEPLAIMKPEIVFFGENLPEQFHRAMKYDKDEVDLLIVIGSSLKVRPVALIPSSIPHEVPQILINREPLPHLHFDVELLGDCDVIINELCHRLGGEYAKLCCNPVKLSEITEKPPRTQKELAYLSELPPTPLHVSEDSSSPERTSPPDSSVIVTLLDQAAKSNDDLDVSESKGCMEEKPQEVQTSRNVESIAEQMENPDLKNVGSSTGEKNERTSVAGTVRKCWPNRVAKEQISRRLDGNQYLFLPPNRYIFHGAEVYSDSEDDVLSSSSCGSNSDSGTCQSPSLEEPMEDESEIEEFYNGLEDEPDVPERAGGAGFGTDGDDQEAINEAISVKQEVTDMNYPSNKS
Chain of UniProt Q01959 (whole entry, looked up): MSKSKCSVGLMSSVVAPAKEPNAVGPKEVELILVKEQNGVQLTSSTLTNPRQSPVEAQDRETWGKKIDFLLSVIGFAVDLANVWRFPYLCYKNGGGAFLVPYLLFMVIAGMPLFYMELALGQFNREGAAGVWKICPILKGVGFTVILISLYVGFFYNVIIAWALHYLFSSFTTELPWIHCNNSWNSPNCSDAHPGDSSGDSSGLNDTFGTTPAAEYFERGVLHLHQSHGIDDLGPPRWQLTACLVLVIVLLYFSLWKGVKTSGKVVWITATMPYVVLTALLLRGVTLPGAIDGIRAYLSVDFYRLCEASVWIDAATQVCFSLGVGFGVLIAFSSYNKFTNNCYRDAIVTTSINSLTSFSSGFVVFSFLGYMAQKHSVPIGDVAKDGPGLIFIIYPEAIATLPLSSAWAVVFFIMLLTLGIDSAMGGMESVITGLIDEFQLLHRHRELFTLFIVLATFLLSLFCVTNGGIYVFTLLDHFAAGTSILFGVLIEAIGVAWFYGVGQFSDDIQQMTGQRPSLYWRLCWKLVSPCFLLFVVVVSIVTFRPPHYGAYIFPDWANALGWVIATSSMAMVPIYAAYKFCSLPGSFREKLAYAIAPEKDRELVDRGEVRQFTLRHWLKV

C[C@H](OP(=O)(O)O)[C@H]1NC(=O)[C@@H](CCCNC(=N)N)NC(=O)[C@H](CCCNC(=N)N)NC(=O)[C@@H](CCCNC(=N)N)NC(=O)[C@H](CCCNC(=N)N)NC(=O)[C@H](Cc2ccc3ccccc3c2)NC(=O)[C@@H]2CCCCN2C1=O  IC50 (Peptidyl-prolyl cis-trans isomerase NIMA-interacting 1 (PIN1, Homo sapiens, UniProt Q13526); fluorescence anisotropy competition; together with: FITC-labelled probe): > 10000 nM
CC(C)[C@H](NC(=O)[C@H](C)NC(=O)[C@H](Cc1c[nH]c2ccccc12)NC(=O)[C@H](Cc1c[nH]cn1)NC(=O)[C@H](N)Cc1ccccc1)C(=O)N[C@H](C)C(=O)N[C@@H](Cc1c[nH]cn1)C(=O)N1CCC[C@@H]1CN[C@@H](Cc1ccccc1)C(N)=O  IC50 (GRPR; inositol phosphate generation, antagonist; Balb 3T3 expressing GRPR; together with: GRP 1 nM): 31 ± 3 nM
Cc1nc2ccc(Br)cc2c(=O)n1N  IC50 (Pancreatic alpha-amylase (Homo sapiens, UniProt P04746); enzyme activity, inhibitor; mean of two determinations): 399000 ± 4950 nM
CC[C@H](C)[C@H](NC(=O)[C@H](Cc1ccccc1)NC(=O)[C@H](CC(=O)O)NC(=O)[C@H](CCCNC(=N)N)NC(=O)[C@H](C)NC(=O)[C@H](C)NC(=O)[C@H](CC(C)C)NC(=O)[C@H](CC(N)=O)NC(=O)[C@H](CC(=O)O)NC(=O)[C@H](CC(C)C)NC(=O)[C@@H](NC(=O)[C@@H](NC(=O)[C@H](CC(N)=O)NC(=O)[C@H](CCSC)NC(=O)[C@H](CCC(=O)O)NC(=O)[C@H](CC(=O)O)NC(=O)[C@H](CO)NC(=O)[C@H](Cc1ccccc1)NC(=O)[C@H](CO)NC(=O)[C@@H](C)NC(=O)[C@H](CC(=O)O)NC(=O)[C@H](C)NC(=O)[C@@H](N)Cc1c[nH]cn1)[C@@H](C)O)[C@@H](C)CC)C(=O)N[C@@H](CC(N)=O)C(=O)N[C@@H](Cc1c[nH]c2ccccc12)C(=O)N[C@@H](CC(C)C)C(=O)N[C@H](C(=O)N[C@@H](CCC(N)=O)C(=O)N[C@H](C(=O)N[C@@H](CCCCN)C(=O)N[C@H](C(=O)N[C@H](C(=O)N[C@@H](CC(=O)O)C(N)=O)[C@@H](C)O)[C@@H](C)CC)[C@@H](C)O)[C@@H](C)CC  IC50 (Glucagon-like peptide 2 receptor (GLP2R, Homo sapiens, UniProt O95838)): 98 nM
Cc1cc(N2CC[C@@](C#N)(C3CC3)C2=O)cc(NC(=O)Cc2ccccc2)n1  IC50 (Proline--tRNA ligase (Plasmodium falciparum, UniProt Q8I5R7); enzyme activity, inhibitor, absorbance): 21.7 nM
Cc1cc(C)nc(SC(C)C(=O)Nc2ncc(Cc3cccc4ccccc34)s2)n1 (stereo not drawn)  IC50 (NAD-dependent protein deacetylase sirtuin-1 (SIRT1, Homo sapiens, UniProt Q96EB6); enzyme activity, inhibitor, fluorescence): > 100000 nM
CC(C)C[C@@H]1NC(=O)[C@H](Cc2c[nH]cn2)NC(=O)[C@@H](C)NC(=O)[C@H](C(C)C)NC(=O)[C@H](C)NC(=O)[C@H](Cc2c[nH]c3ccccc23)NC(=O)[C@H](CCC(N)=O)NC(=O)[C@H](N)CSSC[C@@H](C(N)=O)NC1=O  IC50 (GRPR; ligand displacement in cells, radioligand): 437 nM
O=C(CNc1nc(Cl)nc(NNC(=O)c2ccc(Nc3nc(Nc4ccc(C(=O)NNc5nc(Cl)nc(NCC(=O)NO)n5)cc4)nc(Nc4ccc(C(=O)NNc5nc(Cl)nc(NCC(=O)NO)n5)cc4)n3)cc2)n1)NO  IC50 (Matrix metalloproteinase-9 (MMP9, Homo sapiens, UniProt P14780); enzyme activity, inhibitor, absorbance): 243 nM
CN(C)CCN(Cc1ccncc1)Cc1c(Cl)cccc1Cl  IC50 (Sodium-dependent dopamine transporter (SLC6A3, Homo sapiens, UniProt Q01959); transporter uptake, inhibitor, radiometric): > 20000 nM

A few entries again:
Cc1cc(N2CC[C@@](C#N)(C3CC3)C2=O)cc(NC(=O)Cc2ccccc2)n1  IC50 (Proline--tRNA ligase (Plasmodium falciparum, UniProt Q8I5R7); enzyme activity, inhibitor, absorbance): 21.7 nM
